{"data": "Results pooled from the literature", "note": "Compare with care: the assays were run in different laboratories. Several values in a cell are separate wells, animals, samples, runs or records. ± gives the spread as reported."}
{"SMILES": "C[C@@H]1CC[C@H]2[C@@H](/C1=C/C[C@H]1[C@]3(C)CCC(=O)C(C)(C)O[C@H]3CC[C@]1(C)O)C(C)(C)CC[C@]2(C)O", "tested on": "P-glycoprotein human", "assay": "inhibitor, efflux", "test system": "KB-C2", "conditions": "10 µM, 120 min, together with: [3H]-paclitaxel", "endpoint": "paclitaxel remaining", "value": "64.3%"}
{"SMILES": "CCn1cc(-c2cc(Cn3ccnc3)cc3c2CCN([C@H](c2cc(OC)ccn2)C2CC2)C3=O)c(C(F)(F)F)n1", "tested on": "JHOM1", "assay": "cell growth", "conditions": "120 h", "endpoint": "EC50", "value": "0.0238 µM"}
{"SMILES": "O=C(/C=C/C=C/C=C/C1CCCCC1)NC1=C[C@@](O)(/C=C/C=C/C=C/C(=O)NC2=C(O)CCC2=O)[C@@H]2O[C@@H]2C1=O", "tested on": "snu410", "assay": "cell growth, inhibitor, CellTiter-Glo luminescence", "conditions": "78 h", "scale": "reference: day 0 cell count", "endpoint": "GI50", "value": "18.9 µM"}
{"SMILES": "COc1cnc2cccc(N3CCc4c(cc(Cn5ccnc5C)cc4-c4cn(C)nc4C(F)(F)F)C3=O)c2c1", "tested on": "Capan-2", "assay": "cell growth, inhibitor", "conditions": "120 h", "endpoint": "EC50", "value": "26.2 µM"}
{"SMILES": "CCN(C)C(=O)Oc1cccc([C@H](C)N(C)C)c1", "tested on": "H+/organic cation antiporter", "assay": "cell uptake", "test system": "hCMEC/D3", "endpoint": "Km", "value": "91.7 µM"}
{"SMILES": "OC(CCN1CCCCC1)(c1ccccc1)C1CC2C=CC1C2 (stereo not drawn)", "assay": "resting-state EEG", "test system": "healthy elderly humans", "conditions": "oral, 2 mg, eyes closed, LS mean", "endpoint": "power, alpha, EEG O1-Pz", "value": "21.3 µV²"}
{"SMILES": "NC(=O)c1cnc2[nH]ccc2c1N[C@@H]1[C@@H]2CC3C[C@H]1C[C@@](O)(C3)C2", "assay": "flow cytometry", "test system": "Japanese healthy men, blood", "conditions": "oral, 20 mg single dose, 24 h", "scale": "reference: baseline", "endpoint": "total memory T-cell change", "value": "-0.17%"}
{"SMILES": "CN[C@H](CC(C)C)C(=O)N[C@H]1C(=O)N[C@@H](CC(N)=O)C(=O)N[C@H]2C(=O)N[C@H]3C(=O)N[C@H](C(=O)N[C@H](C(=O)O)c4cc(O)cc(O)c4-c4cc3ccc4O)[C@H](O)c3ccc(c(Cl)c3)Oc3cc2cc(c3O[C@@H]2O[C@H](CO)[C@@H](O)[C@H](O)[C@H]2O[C@H]2C[C@](C)(N)[C@H](O)[C@H](C)O2)Oc2ccc(cc2Cl)[C@H]1O", "tested on": "Streptococcus pyogenes", "test system": "10 isolates", "conditions": "pH 7.0", "endpoint": "MIC50", "value": "0.5 µg/mL"}
{"SMILES": "Cn1cc(-c2ccc(-c3cncc(Cl)c3N3CCC4(CCNC4=O)CC3)cc2)cn1", "tested on": "COLO 205", "assay": "gene expression, microarray, measured: ZFP14 mRNA", "conditions": "concentration not given, 6 h", "scale": "reference: untreated cells", "endpoint": "log2 fold change", "value": 2.62}
{"SMILES": "CC1=NN(c2cccc([N+](=O)[O-])c2)C(=O)C1=NNc1ccc(S(N)(=O)=O)cc1", "tested on": "Saccharomyces cerevisiae", "conditions": "10 µg/mL", "endpoint": "glucose uptake", "value": "26.277 ± 0.000606%"}
{"SMILES": "CN1CCC[C@@H]1CCO[C@](C)(c1ccccc1)c1ccc(Cl)cc1", "tested on": "H+/organic cation antiporter", "assay": "cell uptake", "test system": "hCMEC/D3", "endpoint": "Vmax", "value": "2700 pmol/min/mg protein"}
{"SMILES": "CC1=NCCNC(=O)C1=NNc1ccc(S(N)(=O)=O)cc1", "tested on": "Saccharomyces cerevisiae", "conditions": "50 µg/mL", "endpoint": "glucose uptake", "value": "27%"}
{"SMILES": "CCN(CC)CC(=O)Nc1c(C)cccc1C", "tested on": "H+/organic cation antiporter", "assay": "cell uptake", "test system": "hCMEC/D3", "endpoint": "Vmax", "value": "3680 pmol/min/mg protein"}
{"SMILES": "Oc1ccccc1-c1n[nH]cc1-c1ccnc2ccccc12", "tested on": "RTK1 (Candida albicans)", "assay": "kinase binding, MIB/MS competition", "test system": "Candida albicans lysate", "conditions": "1 µM", "scale": "reference: DMSO", "endpoint": "log2 fold change", "value": 0.02}
{"SMILES": "CCn1cc(-c2cc(Cn3ccoc3=N)cc3c2CCN([C@@H](C)c2cc(OC)ccn2)C3=O)c(C(F)(F)F)n1", "tested on": "G-401", "assay": "cell growth, inhibitor", "conditions": "120 h", "endpoint": "EC50", "value": "0.0834 µM"}
{"SMILES": "CC[S+]([O-])c1nc(-c2ccccc2)cc(C(F)(F)F)n1 (stereo not drawn)", "tested on": "importin alpha/beta-1", "assay": "cMyc nuclear import, high content imaging", "test system": "HeLa Kyoto reporter", "conditions": "0.05 µM, 2 h", "endpoint": "cells with nuclear reporter", "value": "78.7% and 85.8% and 73.4% and 89.7%"}
{"SMILES": "CN1C2CCCC1CC(NC(=O)c1nn(C)c3ccccc13)C2 (stereo not drawn)", "tested on": "H+/organic cation antiporter", "assay": "cell uptake", "test system": "hCMEC/D3", "endpoint": "Km", "value": "43.4 µM"}
{"SMILES": "c1ccc(-c2n[nH]cc2-c2ccnc3ccccc23)nc1", "assay": "kinase binding, competitor, MIB/MS competition, measured: PKH2", "test system": "Candida albicans cell lysate", "conditions": "100 nM", "scale": "reference: DMSO", "endpoint": "log2 fold change", "value": 1.19}
{"SMILES": "CC1=NN(c2ccc(C)cc2)C(=O)C1=NNc1ccc(S(N)(=O)=O)cc1", "tested on": "Saccharomyces cerevisiae", "conditions": "500 µg/mL", "endpoint": "glucose uptake", "value": "67.3%"}
{"SMILES": "c1coc(-c2n[nH]cc2-c2ccnc3ccccc23)c1", "tested on": "CDC7 (Candida albicans)", "assay": "kinase binding, MIB/MS competition", "test system": "Candida albicans lysate", "conditions": "10 µM", "scale": "reference: DMSO", "endpoint": "log2 fold change", "value": -0.05}
{"SMILES": "CC1=NNC(=O)C1=NNc1ccc(S(N)(=O)=O)cc1", "tested on": "Saccharomyces cerevisiae", "conditions": "200 µg/mL", "endpoint": "glucose uptake", "value": "46.7%"}
{"SMILES": "O=C1c2cccc3c2[C@H](CCC3)CN1[C@@H]1CN2CCC1CC2", "tested on": "H+/organic cation antiporter", "assay": "cell uptake", "test system": "hCMEC/D3", "endpoint": "Vmax", "value": "1910 pmol/min/mg protein"}
{"SMILES": "CC(=O)NC[C@H]1CN(c2ccc(N3CCOCC3)c(F)c2)C(=O)O1", "tested on": "Streptococcus viridans", "test system": "10 clinical isolates", "endpoint": "MIC50", "value": "0.5 µg/mL"}
{"SMILES": "CC(C)NCC(O)c1ccc(O)c(O)c1 (stereo not drawn)", "tested on": "mouse ventricular cardiomyocytes", "conditions": "dose not given, 0.152 s", "endpoint": "sarcomere length", "value": "1.58 µm"}
{"note": "Some of these lines once more:"}
{"SMILES": "C[C@@H]1CC[C@H]2[C@@H](/C1=C/C[C@H]1[C@]3(C)CCC(=O)C(C)(C)O[C@H]3CC[C@]1(C)O)C(C)(C)CC[C@]2(C)O", "tested on": "P-glycoprotein human", "assay": "inhibitor, efflux", "test system": "KB-C2", "conditions": "10 µM, 120 min, together with: [3H]-paclitaxel", "endpoint": "paclitaxel remaining", "value": "64.3%"}
{"SMILES": "CC1=NNC(=O)C1=NNc1ccc(S(N)(=O)=O)cc1", "tested on": "Saccharomyces cerevisiae", "conditions": "200 µg/mL", "endpoint": "glucose uptake", "value": "46.7%"}
